# Measured values from different studies.
# Compare with care: the assays were run in different laboratories. ± marks the error that the study gave.
Structure (SMILES),test,system,conditions,Cmax
COc1ccc(CCC(C)=O)cc1,,"male C57BL/6J mice low-fat diet, plasma","oral, 200 mg/kg, diet 8 weeks",0.055 ± 0.018 µM
Cc1cc(Nc2cc3ncccc3c(N[C@@H]3C[C@H]4CC[C@@H](C3)N4CCC#N)n2)n[nH]1,,"male BALB/c mice, colon","oral, 10 mg/kg",9.17 ± 10.3 µM
OCCc1ccc(O)cc1,,"Balb/c tumour-bearing mice, plasma","oral, 109.2 mg/kg SNZ",134 ng/mL
CC(=O)CCc1ccc(O)cc1,,"male C57BL/6J mice, low-fat diet, plasma","oral, 200 mg/kg, after enzymatic deconjugation",243 ± 19.6 µM
CC[C@H](C)[C@@H]1NC(=O)[C@H](Cc2ccc(O)cc2)NC(=O)[C@@H](N)CSSC[C@@H](C(=O)N2CCC[C@H]2C(=O)N[C@@H](CC(C)C)C(=O)NCC(N)=O)NC(=O)[C@H](CC(N)=O)NC(=O)[C@H](CCC(N)=O)NC1=O,"microdialysis, radioimmunoassay","knock-out male mice lacking compound, hippocampus extracellular fluid","intraperitoneal, 12 µg total",1.94 ± 0.85 pg/sample
COc1ccc2c(c1OC)C(=O)O[C@@H]2[C@H]1c2c(cc3c(c2OC)OCO3)CCN1C,,"CD-1 mice, male, plasma","oral gavage, 50 mg/kg",1160 ± 18.9 ng/mL
Cc1cc(Oc2nccc3occc23)ccc1-c1c(C)c(=O)[nH]c(=O)n1C,,"Swiss albino male mice, brain","intraperitoneal, 50 mg/kg",~100 µM
CC(O)CCc1ccc(O)cc1 (stereo not shown),,"male C57BL/6J mice, low-fat diet, plasma","oral, 200 mg/kg of RK, after enzymatic deconjugation",103 ± 3.26 µM
C[C@@H]1CCN(C(=O)CC#N)C[C@@H]1N(C)c1ncnc2[nH]ccc12,,"male BALB/c mice, plasma","oral, 10 mg/kg",0.62 ± 0.075 µM
Cn1cnc2c(F)c(Nc3ccc(Br)cc3Cl)c(C(=O)NOCCO)cc21,,"nude mice with A-375 tumours, plasma","oral, 10 mg/kg once daily, 7 days, steady state",2980 ng/mL
CC(=O)C=Cc1ccc(O)c(O)c1,,"male C57BL/6J mice low-fat diet, plasma","oral, 200 mg/kg, after enzymatic deconjugation",0.48 ± 0.06 µM
Nc1cc(-c2ccccc2)ccc1Cn1cncc1CNc1ccc(-c2nc3ccccc3s2)c(-c2ccccc2)c1,,"female BALB/c mice, plasma","oral, 50 mg/kg single dose",5800 ng/mL
O=C(O[C@@H]1Cc2c(O)cc(O)cc2O[C@@H]1c1cc(O)c(O)c(O)c1)c1cc(O)c(O)c(O)c1,,"male CB17 SCID mice, plasma","intravenous, 50 mg/kg, earliest sampling 2 min",224 µM
O=c1c(O)c(-c2ccc(O)cc2)oc2cc(OS(=O)(=O)O)cc(O)c12,,"FVB mice, male, Mdr1a^−/−, plasma","oral, 10 mg/kg of kaempferol",0.141 ± 0.101 µM
OCCc1ccc(O)cc1,,"obese male C57BL/6J mice, plasma","oral, 200 mg/kg, high-fat diet 8 weeks",22.3 ± 7.6 µM
CN1CCN(c2ccc3nc(-c4c(N)c5c(F)cccc5[nH]c4=O)[nH]c3c2)CC1,,"NOD/SCID mice, male, blood or plasma","oral, 30 mg/kg once daily, day 1",373 ± 14.6 ng/mL

# Some of these lines once more:
Structure (SMILES),test,system,conditions,Cmax
O=C(O[C@@H]1Cc2c(O)cc(O)cc2O[C@@H]1c1cc(O)c(O)c(O)c1)c1cc(O)c(O)c(O)c1,,"male CB17 SCID mice, plasma","intravenous, 50 mg/kg, earliest sampling 2 min",224 µM
